Assay results collected from several papers.
Every numbered part comes from another study and shows a few of its results, in no order. “And” joins repeats or separate records; there may be more than shown. ± marks the error that the study gave.
UniProt P02708, sequence (whole entry, looked up): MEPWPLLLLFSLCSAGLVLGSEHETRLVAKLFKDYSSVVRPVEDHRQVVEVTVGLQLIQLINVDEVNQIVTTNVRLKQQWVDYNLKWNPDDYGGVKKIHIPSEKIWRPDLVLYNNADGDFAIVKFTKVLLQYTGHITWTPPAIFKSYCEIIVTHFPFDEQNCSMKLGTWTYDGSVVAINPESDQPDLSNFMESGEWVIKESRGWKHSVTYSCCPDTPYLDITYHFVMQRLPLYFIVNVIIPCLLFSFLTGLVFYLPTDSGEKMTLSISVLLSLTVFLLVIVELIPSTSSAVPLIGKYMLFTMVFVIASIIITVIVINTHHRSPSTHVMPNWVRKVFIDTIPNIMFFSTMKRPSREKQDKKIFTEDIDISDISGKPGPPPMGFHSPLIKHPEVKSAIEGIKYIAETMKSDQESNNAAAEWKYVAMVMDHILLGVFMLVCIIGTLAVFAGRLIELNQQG
UniProt Q81Y92, sequence (whole entry, looked up): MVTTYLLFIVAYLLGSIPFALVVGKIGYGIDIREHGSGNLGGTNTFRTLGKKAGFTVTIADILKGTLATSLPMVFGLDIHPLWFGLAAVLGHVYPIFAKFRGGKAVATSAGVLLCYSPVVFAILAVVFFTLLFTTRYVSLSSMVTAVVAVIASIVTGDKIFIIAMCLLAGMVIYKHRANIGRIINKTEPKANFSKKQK
UniProt Q07001, sequence (whole entry, looked up): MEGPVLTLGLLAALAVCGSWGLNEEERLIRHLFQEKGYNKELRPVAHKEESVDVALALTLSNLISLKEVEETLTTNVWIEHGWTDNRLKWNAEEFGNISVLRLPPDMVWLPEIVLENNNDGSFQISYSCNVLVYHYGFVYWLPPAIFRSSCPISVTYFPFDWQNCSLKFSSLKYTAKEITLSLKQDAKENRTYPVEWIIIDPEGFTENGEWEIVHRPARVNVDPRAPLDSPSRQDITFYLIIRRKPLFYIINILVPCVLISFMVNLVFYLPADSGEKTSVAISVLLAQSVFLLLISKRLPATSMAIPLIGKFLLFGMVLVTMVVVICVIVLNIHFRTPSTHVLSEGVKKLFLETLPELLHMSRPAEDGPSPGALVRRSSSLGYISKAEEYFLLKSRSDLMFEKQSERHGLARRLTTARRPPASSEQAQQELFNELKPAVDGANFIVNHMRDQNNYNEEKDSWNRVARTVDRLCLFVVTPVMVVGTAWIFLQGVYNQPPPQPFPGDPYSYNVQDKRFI
UniProt P07510, sequence (whole entry, looked up): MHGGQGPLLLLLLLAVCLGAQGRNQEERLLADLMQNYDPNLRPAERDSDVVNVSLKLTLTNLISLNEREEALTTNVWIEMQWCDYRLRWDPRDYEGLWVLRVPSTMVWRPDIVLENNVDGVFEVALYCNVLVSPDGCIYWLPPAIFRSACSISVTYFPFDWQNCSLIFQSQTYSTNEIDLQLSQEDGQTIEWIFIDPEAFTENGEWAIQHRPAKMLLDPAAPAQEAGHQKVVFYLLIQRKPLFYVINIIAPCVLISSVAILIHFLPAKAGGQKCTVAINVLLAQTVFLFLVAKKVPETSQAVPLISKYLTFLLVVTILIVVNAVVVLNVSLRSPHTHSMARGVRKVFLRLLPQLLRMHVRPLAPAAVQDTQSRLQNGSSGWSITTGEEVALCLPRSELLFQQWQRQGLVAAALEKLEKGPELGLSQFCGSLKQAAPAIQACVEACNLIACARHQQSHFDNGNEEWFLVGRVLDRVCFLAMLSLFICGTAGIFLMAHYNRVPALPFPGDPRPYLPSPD

Block 1 — action: inhibitor; concentration: 20 µM; endpoint: inhibition
Target: Replicase polyprotein 1ab, nsp13 helicase (rep, Severe acute respiratory syndrome coronavirus 2, UniProt P0DTD1)
CCCCC1=NC2(CCCC2)C(=O)N1Cc1ccc(-c2ccccc2-c2nnn[nH]2)cc1: 11.8%
CCN(CC)C(=O)/C(C#N)=C/c1cc(O)c(O)c([N+](=O)[O-])c1: 60%
COc1cc(Cc2cnc(N)nc2N)cc(OC)c1OC: 3.06%
CCOc1ccc(-n2c([C@@H](C)N(Cc3cccnc3)C(=O)Cc3ccc(OC(F)(F)F)cc3)nc3ncccc3c2=O)cc1: -4.7%
CC(C)(O)CS(=O)(=O)Nc1ccc2c(c1)CCN(C(=O)COc1cccnc1)C2: 6.35%
CN(Cc1cccc(-c2ccccc2)c1)C(=O)Oc1ccc(-c2ccc(C(N)=O)cc2)cc1: 2.28%
O=C1CC[C@@]2(O)[C@H]3Cc4ccc(O)c5c4[C@@]2(CCN3CC2CC2)[C@H]1O5: 1.32%
CN(C)CCOC(C)(c1ccccc1)c1ccccn1 (centres unmarked): 2.3%
CCN(c1cc(C#CCN2CCOCC2)cc(C(=O)NCc2c(C)cc(C)[nH]c2=O)c1C)[C@H]1CC[C@H](N(C)CCOC)CC1: 11%
O=C(O)[C@H](CC(=O)N1C[C@H]2CCCC[C@H]2C1)Cc1ccccc1: 2.44%
CCN(Cc1ccc(Cl)nc1)/C(=C/[N+](=O)[O-])NC: 1.2%
CCCCCCCCCCCCCCCCCCN(CCCCCCCCCCCCCCCCCC)CCCN(CCO)CCO: 3.16%
O=C(N[C@H]1CCN(C(=O)c2cc(C(F)(F)F)cc(C(F)(F)F)c2)[C@H](Cc2ccc(Cl)cc2)C1)c1ccnc2ccccc12: -1.99%
Cc1c(NC(=O)OC[C@@H]2COCCN2)cn2ncnc(Nc3ccc4c(cnn4Cc4cccc(F)c4)c3)c12: 1.98%
Nc1nonc1C(=Nc1ccc(F)c(Cl)c1)NO: 5.07%
CC(CCc1ccc(O)cc1)NCCc1ccc(O)c(O)c1 (centres unmarked): -0.3%
N[C@@H]1C[C@H]1c1ccccc1 (racemic): -0.3%
CC[C@H]1OC(=O)[C@H](C)C(=O)[C@H](C)[C@@H](O[C@@H]2O[C@H](C)C[C@H](N(C)C)[C@H]2O)[C@](C)(OC)C[C@@H](C)C(=O)[C@H](C)[C@H]2N(CCCCn3cnc(-c4cccnc4)c3)C(=O)O[C@]12C: 9.65%
C[C@@H](Oc1cc(-c2cnn(C3CCNCC3)c2)cnc1N)c1c(Cl)ccc(F)c1Cl: 31.1%
NS(=O)(=O)c1cc(C(=O)O)c(NCc2ccco2)cc1Cl: 3.34%
OC(Cc1ccncc1)C(Cl)(Cl)Cl (centres unmarked): 5.97%
CN(CC[C@@H](Oc1ccc(-c2ccccc2)cc1)c1ccc(F)cc1)CC(=O)O: 8.04%
CCCCn1c(-c2ccccc2)nc(-c2ccccc2)c1CN(Cc1ccc2c(c1)OCO2)Cc1ccc2c(c1)OCO2: 2.98%
O=C(O)c1ccccc1NC(=O)N1CCC(c2ccccc2C(F)(F)F)CC1: -3.96%
CCCC[P+](CCCC)(CCCC)Cc1ccc(NC(=O)[C@H](Cc2ccc3ccccc3c2)NC(=NC2CCCCC2)NC2CCCCC2)cc1: 6.14%

Mixed results
Polyprotein P1234 nsP2 protease domain: Polyprotein P1234, nsP2 protease domain (Chikungunya virus, UniProt Q5XXP4)
UniProt Q5XXP4, sequence (whole entry, looked up): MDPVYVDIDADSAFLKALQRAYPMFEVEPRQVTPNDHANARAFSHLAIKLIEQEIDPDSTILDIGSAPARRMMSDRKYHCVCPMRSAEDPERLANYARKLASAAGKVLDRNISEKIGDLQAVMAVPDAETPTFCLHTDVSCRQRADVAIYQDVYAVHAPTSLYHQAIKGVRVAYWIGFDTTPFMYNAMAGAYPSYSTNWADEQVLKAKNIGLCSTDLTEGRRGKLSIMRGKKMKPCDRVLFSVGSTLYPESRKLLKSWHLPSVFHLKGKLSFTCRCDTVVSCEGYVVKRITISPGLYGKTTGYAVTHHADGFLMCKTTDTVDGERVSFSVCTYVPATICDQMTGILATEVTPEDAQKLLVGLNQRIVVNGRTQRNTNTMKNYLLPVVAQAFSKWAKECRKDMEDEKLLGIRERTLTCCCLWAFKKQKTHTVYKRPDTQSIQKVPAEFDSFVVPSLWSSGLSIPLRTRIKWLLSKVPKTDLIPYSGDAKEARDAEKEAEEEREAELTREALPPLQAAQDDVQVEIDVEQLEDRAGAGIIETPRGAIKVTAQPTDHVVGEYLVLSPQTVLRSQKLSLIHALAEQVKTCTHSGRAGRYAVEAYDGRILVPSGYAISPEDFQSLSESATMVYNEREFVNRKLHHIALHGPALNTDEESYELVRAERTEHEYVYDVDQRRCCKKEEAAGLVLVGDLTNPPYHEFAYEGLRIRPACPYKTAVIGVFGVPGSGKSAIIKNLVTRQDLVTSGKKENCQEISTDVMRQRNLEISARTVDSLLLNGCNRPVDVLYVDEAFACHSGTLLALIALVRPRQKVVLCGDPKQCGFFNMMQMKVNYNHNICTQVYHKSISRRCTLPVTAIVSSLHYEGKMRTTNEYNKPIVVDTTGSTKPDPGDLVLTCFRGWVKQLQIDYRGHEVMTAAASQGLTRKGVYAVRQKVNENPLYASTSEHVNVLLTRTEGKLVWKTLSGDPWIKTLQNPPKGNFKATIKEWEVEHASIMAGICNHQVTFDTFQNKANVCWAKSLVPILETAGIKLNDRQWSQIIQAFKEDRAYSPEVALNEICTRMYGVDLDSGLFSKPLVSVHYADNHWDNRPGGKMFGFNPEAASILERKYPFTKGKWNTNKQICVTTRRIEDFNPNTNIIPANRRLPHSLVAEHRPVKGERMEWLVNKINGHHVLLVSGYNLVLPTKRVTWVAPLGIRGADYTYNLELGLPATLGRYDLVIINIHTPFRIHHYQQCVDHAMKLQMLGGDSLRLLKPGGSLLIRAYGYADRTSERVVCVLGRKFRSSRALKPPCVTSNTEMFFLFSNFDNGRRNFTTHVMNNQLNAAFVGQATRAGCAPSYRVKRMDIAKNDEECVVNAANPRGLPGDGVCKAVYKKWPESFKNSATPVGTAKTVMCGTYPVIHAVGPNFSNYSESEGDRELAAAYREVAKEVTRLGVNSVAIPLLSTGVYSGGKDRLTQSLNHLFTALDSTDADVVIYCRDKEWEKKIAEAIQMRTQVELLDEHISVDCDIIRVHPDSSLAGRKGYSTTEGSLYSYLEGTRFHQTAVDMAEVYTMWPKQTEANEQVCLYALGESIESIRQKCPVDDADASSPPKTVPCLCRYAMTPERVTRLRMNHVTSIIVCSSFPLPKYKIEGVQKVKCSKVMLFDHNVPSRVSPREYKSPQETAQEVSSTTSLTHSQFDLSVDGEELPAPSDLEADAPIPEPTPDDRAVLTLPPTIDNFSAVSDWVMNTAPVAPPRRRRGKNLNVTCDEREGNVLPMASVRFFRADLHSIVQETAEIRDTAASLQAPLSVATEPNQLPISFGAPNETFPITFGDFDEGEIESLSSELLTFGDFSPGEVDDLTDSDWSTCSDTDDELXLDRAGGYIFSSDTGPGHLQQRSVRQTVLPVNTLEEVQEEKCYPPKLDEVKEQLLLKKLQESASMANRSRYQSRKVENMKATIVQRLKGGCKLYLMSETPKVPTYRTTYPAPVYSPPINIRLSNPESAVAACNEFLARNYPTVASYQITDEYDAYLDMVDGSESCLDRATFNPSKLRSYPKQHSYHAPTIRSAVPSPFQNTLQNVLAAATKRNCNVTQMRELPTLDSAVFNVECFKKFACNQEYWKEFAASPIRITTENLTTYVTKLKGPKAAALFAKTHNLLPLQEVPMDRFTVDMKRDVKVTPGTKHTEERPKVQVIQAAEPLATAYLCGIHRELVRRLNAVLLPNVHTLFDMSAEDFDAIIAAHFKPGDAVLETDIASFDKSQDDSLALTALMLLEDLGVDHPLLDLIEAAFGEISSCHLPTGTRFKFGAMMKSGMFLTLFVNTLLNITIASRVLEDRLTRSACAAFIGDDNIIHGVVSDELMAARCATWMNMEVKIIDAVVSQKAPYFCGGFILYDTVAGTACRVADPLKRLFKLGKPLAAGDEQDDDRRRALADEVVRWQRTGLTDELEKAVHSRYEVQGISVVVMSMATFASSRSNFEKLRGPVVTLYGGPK
Cc1ccc(NC(=O)c2cc3c(=O)n4cccc(C)c4nc3n2C)cc1Cl — EC50 (SARS-CoV-2; viral replication, qPCR; Vero E6): 104 ± 3.44 nM
CC(C)(C)[C@H](NC(=O)C(F)(F)F)C(=O)N1C[C@H]2[C@@H]([C@H]1C(=O)N[C@H](C#N)C[C@@H]1CCNC1=O)C2(C)C — participants discontinued due to adverse events (human, fasted; oral, 150 mg single dose, 28 days, no ritonavir): 0%
COC(=O)c1ccc(COc2ccccc2NC(=O)c2ccccc2OC)cc1 — IC50 (HIV-1; viral replication, item: RT activity; H9 expressing A3G, LAI, X4-tropic wild type; day 7): > 100 µM
CC[C@H](C)[C@H](NC(=O)[C@@H](NC(=O)[C@@H](N)Cc1ccccc1)[C@@H](C)O)C(=O)N[C@@H](CC(=O)O)C(=O)N[C@@H](Cc1ccccc1)C(=O)N[C@@H](CCCCN)C(=O)N[C@@H](CC(C)C)C(=O)N[C@@H](CCCCN)C(=O)N[C@@H](Cc1ccc(O)cc1)C(=O)O — IC50 (HLA class I histocompatibility antigen, A alpha chain, allele A*29:02 (Homo sapiens, UniProt P04439); biochemical): 0.0014 µM
Cc1cccc(CN2CCN(C(c3ccccc3)c3ccc(Cl)cc3)CC2)c1 (centres unmarked) — selectivity index (Ebola virus Zaire; pseudovirus entry; A549; reference: CC50 over IC50): 9
Cn1c(C(=O)Nc2ccc(Cl)cc2)cc2c(=O)n3ccccc3nc21 — EC50 (SARS-CoV-2; viral replication, qPCR; Vero E6): 109 nM
CC(C)C[C@H](NC(=O)CNC(=O)[C@H](CC(C)C)NC(=O)[C@H](CC(C)C)NC(=O)[C@H](CCCCN)NC(=O)[C@@H](N)CCCCN)C(=O)N[C@@H](CC(C)C)C(=O)N[C@@H](CC(C)C)C(=O)N[C@@H](CCCCN)C(=O)N[C@@H](CC(C)C)C(=O)N[C@@H](CCCCN)C(=O)N[C@@H](CC(C)C)C(=O)N[C@@H](CCCCN)C(=O)O — lowest cytotoxic concentration (HEK-293T; cell death; 24 h, 10% cell death): 256 µg/mL
COc1cnc(NS(=O)(=O)c2ccc(N)cc2)nc1 — viability (HEK-293T/ACE2; 10 µM, 16 h; reference: vehicle): 99.1%
CN1CCN(C2Cc3ccccc3Sc3ccc(Cl)cc32)CC1.O=C(O)/C=C\C(=O)O (centres unmarked) — maximal inhibition (HeLa; Ebola VLP entry): 99%
CCC(C)C(NC(=O)C1N2C(=O)c3ccccc3C2SC1(C)C)C(=O)NC(CO)C(C)C (centres unmarked) — EC50 (SARS-CoV-2; plaque formation, plaque reduction; Vero E6; 72 h): 3000 ± 1600 nM
Cn1cnc(Cn2c(=O)[nH]/c(=N\c3cc4cn(C)nc4cc3Cl)n(Cc3cc(F)c(F)cc3F)c2=O)n1 — treatment-related TEAE, Severe severity (human, moderate renal impairment; oral, 375 mg): 0%
C=CS(=O)(=O)CCC(=O)Nc1ccc(N2CCOCC2)nc1C — IC50 (Polyprotein P1234 nsP2 protease domain; protease activity, inhibitor, FRET; 90 min, 30 min preincubation): 23 ± 2 µM
CCC[C@H](NC(=O)[C@@H]1[C@H]2CCC[C@H]2CN1C(=O)[C@@H](NC(=O)[C@@H](NC(=O)c1cnccn1)C1CCCCC1)C(C)(C)C)C(=O)C(=O)NC1CC1 — inhibition (Replicase polyprotein 1ab, main protease (rep, Severe acute respiratory syndrome coronavirus 2, UniProt P0DTD1); enzyme activity, inhibitor; 20 µM, hit confirmation, with DTT): 36.1%
COc1ccc(Oc2ccccc2NC(=O)c2ccccc2OC)cc1 — IC50 (HIV-1; viral replication, item: RT activity; H9 expressing A3G, LAI, X4-tropic wild type; day 7): 9.7 µM
O=C(NC(Cc1ccccc1)C(=O)NCc1ccccn1)OCc1ccccc1 (centres unmarked) — EC50 (SARS-CoV-2; plaque formation, plaque reduction; Vero E6; 72 h): 20700 ± 1100 nM
CC(C)[C@]12O[C@H]1[C@@H]1O[C@]13[C@]1(O[C@H]1C[C@H]1C4=C(CC[C@@]13C)C(=O)OC4)[C@@H]2O — nuclei count (mouse MPNST tumor cells; high-content nuclear imaging, item: cell number; 10 µM, 12 h, mean of 2 replicates; reference: plate mean, higher = more cells): 0.991 z-score
CS(=O)(=O)C=CCNC(=O)c1ccc2c(c1)NC(=O)CC2 — IC50 (Polyprotein P1234 nsP2 protease domain; protease activity, inhibitor, FRET; 90 min, 30 min preincubation): 1 µM and < 1.5 µM
Cc1cc(COc2ccc([C@]3(N)CCN([C@H](CC(C)C)C(=O)NO)C3=O)cc2)c2ccccc2n1 — IC50 (SARS-CoV-2; cell-cell fusion; HeLa-ACE2, Delta spike): > 10 µM
Cc1cn([C@H]2C=C[C@@H](COP(=O)(O)OP(=O)(O)OP(=O)(O)O)O2)c(=O)[nH]c1=O — IC50 (Gag-Pol polyprotein, reverse transcriptase (gag-pol, Human immunodeficiency virus type 1 group M subtype B, UniProt P04585, K653R); inhibitor; HIV-1): 4.87 ± 1.23 µM
N=C(N)Nc1ccc(C(=O)Oc2ccc3cc(C(=N)N)ccc3c2)cc1 — IC50 (VSVΔG pseudotyped with SARS-CoV-2 S; pseudovirus infection; Delta; tested range 0.3125 to 40 µM): 0.94 µM
O=c1sn(-c2cccc3ccccc23)c(=O)n1Cc1ccccc1 — IC50 (Enterovirus A71 2A protease; enzyme activity, FRET): > 60 µM
CCCCCCCCCCCCCCCC(=O)NS(=O)(=O)Oc1ccc(OC)cc1 — IC50 (Glycerol-3-phosphate acyltransferase 3 (plsY3, Bacillus anthracis, UniProt Q81Y92); inhibitor): 35 µM
NC/C(=C\F)COc1cccc(Cn2c(=S)[nH]c(=O)c3[nH]cnc32)c1 — inhibition (CHRNA1/CHRNG/CHRND (Homo sapiens, UniProt P02708+P07510+Q07001); radioligand binding; 10 µM, together with: bungarotoxin): < 50%
CCc1cc(=O)n2c(=O)/c(=C/c3ccc(-c4ccccc4)cc3)sc2n1 — inhibition (Chikungunya virus; virus-induced cell death, MTS/PMS; BGM, Indian Ocean 899; 20 µg/mL): 5%
CC[C@H](C)[C@H](NC(=O)[C@H](CC(C)C)NC(=O)[C@H](Cc1c[nH]c2ccccc12)NC(=O)[C@H](CCC(N)=O)NC(=O)[C@@H](NC(=O)[C@H](Cc1ccccc1)NC(=O)[C@H](C)NC(=O)[C@H](CCCCNC(=O)COCCOCCNC(=O)COCCOCCNC(=O)CC[C@H](NC(=O)CCCCCCCCCCCCCCCCCCC(=O)O)C(=O)O)NC(=O)[C@H](CCC(N)=O)NC(=O)[C@H](C)NC(=O)[C@@H](NC(=O)[C@H](CCCCN)NC(=O)[C@H](CC(=O)O)NC(=O)[C@H](CC(C)C)NC(=O)C(C)(C)NC(=O)[C@@H](NC(=O)[C@H](CO)NC(=O)[C@H](Cc1ccc(O)cc1)NC(=O)[C@H](CC(=O)O)NC(=O)[C@H](CO)NC(=O)[C@@H](NC(=O)[C@H](Cc1ccccc1)NC(=O)[C@@H](NC(=O)CNC(=O)[C@H](CCC(=O)O)NC(=O)C(C)(C)NC(=O)[C@@H](N)Cc1ccc(O)cc1)[C@@H](C)O)[C@@H](C)O)[C@@H](C)CC)[C@@H](C)CC)C(C)C)C(=O)N[C@@H](C)C(=O)NCC(=O)NCC(=O)N1CCC[C@H]1C(=O)N[C@@H](CO)C(=O)N[C@@H](CO)C(=O)NCC(=O)N[C@@H](C)C(=O)N1CCC[C@H]1C(=O)N1CCC[C@H]1C(=O)N1CCC[C@H]1C(=O)N[C@@H](CO)C(N)=O — AUC(0-tau) (human, plasma; subcutaneous, 5/5/10/10 mg escalation, day 1, tau 168 h, geometric mean): 41900 ng·h/mL
